Measured values pooled from the literature.
Each numbered part is a random draw from the data of one study; scales do not carry over between parts.
Chain of UniProt P10721 (whole entry, unmodified, looked up): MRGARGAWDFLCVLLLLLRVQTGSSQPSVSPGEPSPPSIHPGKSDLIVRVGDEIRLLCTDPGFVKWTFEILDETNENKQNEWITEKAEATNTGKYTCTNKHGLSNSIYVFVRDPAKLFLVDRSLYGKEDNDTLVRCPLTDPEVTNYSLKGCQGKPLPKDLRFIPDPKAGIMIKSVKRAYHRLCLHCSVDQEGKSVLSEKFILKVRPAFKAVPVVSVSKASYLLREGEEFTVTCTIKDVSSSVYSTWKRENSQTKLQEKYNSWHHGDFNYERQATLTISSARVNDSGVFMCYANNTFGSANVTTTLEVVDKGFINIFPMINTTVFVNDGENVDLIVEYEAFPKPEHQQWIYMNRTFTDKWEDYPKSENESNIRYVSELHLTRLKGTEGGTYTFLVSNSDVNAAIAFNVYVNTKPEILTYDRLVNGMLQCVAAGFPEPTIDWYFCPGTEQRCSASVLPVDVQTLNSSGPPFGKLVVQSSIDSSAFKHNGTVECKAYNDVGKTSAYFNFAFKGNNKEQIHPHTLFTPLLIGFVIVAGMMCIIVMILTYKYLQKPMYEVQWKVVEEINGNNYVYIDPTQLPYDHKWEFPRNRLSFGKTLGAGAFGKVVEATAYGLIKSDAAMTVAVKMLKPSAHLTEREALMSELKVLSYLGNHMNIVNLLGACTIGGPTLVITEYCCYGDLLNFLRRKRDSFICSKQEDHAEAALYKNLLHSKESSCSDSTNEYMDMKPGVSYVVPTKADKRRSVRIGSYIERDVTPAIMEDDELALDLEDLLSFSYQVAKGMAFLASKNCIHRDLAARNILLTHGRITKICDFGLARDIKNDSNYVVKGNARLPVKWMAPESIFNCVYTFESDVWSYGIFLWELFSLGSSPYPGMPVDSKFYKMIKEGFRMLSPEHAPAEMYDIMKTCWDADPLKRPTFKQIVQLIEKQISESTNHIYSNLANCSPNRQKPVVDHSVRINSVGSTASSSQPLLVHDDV
Chain of UniProt Q15375 (whole entry, looked up): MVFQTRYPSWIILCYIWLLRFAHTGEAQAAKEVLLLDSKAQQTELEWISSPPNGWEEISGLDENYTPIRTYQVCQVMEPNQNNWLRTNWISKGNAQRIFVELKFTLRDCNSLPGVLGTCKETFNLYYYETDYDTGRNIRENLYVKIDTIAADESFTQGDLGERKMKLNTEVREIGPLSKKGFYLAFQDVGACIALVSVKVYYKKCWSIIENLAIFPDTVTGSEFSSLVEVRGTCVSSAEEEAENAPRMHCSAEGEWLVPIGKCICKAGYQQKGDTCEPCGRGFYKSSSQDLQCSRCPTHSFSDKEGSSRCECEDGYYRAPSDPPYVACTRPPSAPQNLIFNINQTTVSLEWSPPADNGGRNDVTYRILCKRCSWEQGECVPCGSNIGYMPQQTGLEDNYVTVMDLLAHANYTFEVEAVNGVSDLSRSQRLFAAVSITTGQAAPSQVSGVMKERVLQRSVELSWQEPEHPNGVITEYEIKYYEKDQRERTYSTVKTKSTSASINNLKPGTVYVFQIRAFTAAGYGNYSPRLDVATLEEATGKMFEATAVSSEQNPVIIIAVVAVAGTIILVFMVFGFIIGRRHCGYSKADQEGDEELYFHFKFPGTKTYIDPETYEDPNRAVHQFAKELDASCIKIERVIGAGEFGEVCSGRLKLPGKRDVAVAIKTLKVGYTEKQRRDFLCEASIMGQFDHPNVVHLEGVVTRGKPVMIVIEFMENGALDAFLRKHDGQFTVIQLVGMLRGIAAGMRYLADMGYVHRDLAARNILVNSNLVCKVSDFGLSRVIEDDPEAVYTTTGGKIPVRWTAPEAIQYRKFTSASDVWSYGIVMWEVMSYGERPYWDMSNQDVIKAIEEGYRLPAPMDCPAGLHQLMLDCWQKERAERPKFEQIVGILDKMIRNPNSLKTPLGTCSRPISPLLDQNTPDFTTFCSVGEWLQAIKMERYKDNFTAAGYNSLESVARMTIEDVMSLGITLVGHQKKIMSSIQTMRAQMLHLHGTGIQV
Chain of UniProt P54756 (whole entry, looked up): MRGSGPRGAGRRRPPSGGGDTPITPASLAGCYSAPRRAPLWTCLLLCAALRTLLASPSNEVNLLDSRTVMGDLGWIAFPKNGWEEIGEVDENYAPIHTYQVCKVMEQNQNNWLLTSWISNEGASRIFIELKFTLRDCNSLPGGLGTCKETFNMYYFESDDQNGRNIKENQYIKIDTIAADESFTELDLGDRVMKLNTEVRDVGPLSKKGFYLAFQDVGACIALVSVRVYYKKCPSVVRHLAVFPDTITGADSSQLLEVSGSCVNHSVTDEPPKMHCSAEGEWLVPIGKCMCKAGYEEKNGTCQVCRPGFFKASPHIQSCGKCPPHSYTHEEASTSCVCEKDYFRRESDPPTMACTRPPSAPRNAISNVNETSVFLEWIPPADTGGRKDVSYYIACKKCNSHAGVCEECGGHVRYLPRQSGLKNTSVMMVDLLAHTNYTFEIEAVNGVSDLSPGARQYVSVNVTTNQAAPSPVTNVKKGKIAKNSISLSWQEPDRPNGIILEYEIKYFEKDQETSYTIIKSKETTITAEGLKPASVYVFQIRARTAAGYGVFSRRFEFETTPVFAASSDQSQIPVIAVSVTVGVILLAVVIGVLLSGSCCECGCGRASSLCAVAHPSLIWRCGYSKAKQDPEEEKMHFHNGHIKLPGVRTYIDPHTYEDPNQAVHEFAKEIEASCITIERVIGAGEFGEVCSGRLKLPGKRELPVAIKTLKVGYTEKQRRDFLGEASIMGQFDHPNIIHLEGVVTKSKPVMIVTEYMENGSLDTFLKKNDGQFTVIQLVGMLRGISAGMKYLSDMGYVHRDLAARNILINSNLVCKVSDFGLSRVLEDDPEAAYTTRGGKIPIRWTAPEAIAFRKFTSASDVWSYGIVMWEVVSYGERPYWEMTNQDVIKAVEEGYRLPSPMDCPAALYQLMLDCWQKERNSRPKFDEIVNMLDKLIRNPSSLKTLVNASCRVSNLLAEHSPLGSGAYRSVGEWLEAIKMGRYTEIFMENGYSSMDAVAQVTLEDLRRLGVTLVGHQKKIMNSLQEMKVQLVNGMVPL
Chain of UniProt Q9BXA7 (whole entry, looked up): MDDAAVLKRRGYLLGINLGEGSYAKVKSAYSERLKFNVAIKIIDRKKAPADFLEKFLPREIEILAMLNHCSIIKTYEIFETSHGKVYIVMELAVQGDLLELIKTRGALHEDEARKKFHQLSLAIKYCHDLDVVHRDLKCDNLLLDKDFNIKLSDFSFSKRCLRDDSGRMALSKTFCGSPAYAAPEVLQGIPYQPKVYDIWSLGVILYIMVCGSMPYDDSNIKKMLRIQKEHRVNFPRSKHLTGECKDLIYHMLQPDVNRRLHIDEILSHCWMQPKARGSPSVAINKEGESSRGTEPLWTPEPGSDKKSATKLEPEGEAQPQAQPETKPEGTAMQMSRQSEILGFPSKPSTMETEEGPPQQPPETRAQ
Chain of UniProt Q8N752 (whole entry, looked up): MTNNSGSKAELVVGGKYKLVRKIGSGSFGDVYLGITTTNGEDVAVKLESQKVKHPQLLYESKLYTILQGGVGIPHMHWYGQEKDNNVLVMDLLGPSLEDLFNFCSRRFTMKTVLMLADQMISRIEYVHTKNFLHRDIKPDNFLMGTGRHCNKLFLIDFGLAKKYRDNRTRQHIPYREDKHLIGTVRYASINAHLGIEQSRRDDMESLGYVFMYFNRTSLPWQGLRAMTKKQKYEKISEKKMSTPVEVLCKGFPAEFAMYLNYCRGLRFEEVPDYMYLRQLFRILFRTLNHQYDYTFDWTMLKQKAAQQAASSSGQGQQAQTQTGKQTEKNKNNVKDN
Chain of UniProt Q06187 (whole entry, looked up): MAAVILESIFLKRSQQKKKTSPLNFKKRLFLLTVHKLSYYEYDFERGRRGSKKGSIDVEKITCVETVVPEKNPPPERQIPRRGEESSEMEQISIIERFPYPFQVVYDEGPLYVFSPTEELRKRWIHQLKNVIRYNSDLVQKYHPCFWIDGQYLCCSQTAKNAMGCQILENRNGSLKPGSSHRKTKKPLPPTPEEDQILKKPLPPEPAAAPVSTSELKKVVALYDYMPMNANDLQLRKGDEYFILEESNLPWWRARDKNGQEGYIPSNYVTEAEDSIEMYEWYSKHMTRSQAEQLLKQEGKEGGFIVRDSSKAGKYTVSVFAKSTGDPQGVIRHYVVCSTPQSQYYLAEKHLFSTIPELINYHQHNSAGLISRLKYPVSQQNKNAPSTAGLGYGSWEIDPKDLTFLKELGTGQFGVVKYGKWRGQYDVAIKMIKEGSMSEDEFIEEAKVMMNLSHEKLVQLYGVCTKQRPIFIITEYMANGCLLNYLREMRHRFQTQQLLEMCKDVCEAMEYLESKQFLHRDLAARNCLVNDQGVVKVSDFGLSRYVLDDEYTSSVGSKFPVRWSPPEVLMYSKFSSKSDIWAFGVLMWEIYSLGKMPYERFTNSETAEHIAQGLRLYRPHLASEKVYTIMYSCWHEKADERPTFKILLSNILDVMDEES

Study 1 — effect on: acetyl-histone H4 peptide binding; technique: AlphaScreen displacement; tested at: 50 µM
Target: Bromodomain-containing protein 4, BD1 (BRD4, Homo sapiens, UniProt O60885)
SMILES | inhibition [%]
N#CC(=Cc1cccc(F)c1)c1nc2ccccc2s1 | 11.1
CCOC(=O)CC(=O)CSc1ccc2nnc(-c3ccc(OC)c(OC)c3)n2n1 | 15.6
COc1ccc(Nc2ncc(F)c(N3CCOCC3)n2)cc1 | 20.1
Nc1nc(Nc2ccc(Cl)c(Cl)c2)sc1C(=O)c1ccc(F)cc1 | 49.1
Cl.Cn1cc(C2=C(c3c4n(c5ccccc35)CCC(CN)C4)C(=O)NC2=O)c2ccccc21 (centres unmarked) | 93.8
CN[C@@H]1C[C@H]2O[C@@](C)([C@@H]1OC)n1c3ccccc3c3c4c(c5c6ccccc6n2c5c31)C(=O)N[C@H]4O | 33.6
N#CC(C(=O)C1CC1)=C1Nc2ccccc2S1 | 9.3
O=C1Nc2ccccc2C1=Nc1ccc(C(=O)O)cc1 | 6.45
COc1cc2c(Nc3ccc(Br)cc3F)ncnc2cc1OCC1CCN(C)CC1 | 2.35
CCCCCOc1ccc(NC(=O)Nc2ccc(Cl)c(Cl)c2)cc1 | 15.8
O=C(Cc1ccc(-c2ccc(OCCN3CCOCC3)cc2)cn1)NCc1ccccc1 | 9.3
O=C1c2c(O)ccc(O)c2C(=O)c2c(NCCCO)ccc(NCCCO)c21 | 57.4
CCN(CC)c1ccc(Nc2nc(-c3c(C)nc4ccccn34)cs2)cc1 | 97.3
O=C(CSc1ccc2nnc(-c3ccc(Cl)cc3)n2n1)Nc1nccs1 | 10.4

Study 2 — SMILES: c1ccc(N2CCN(Cc3nc4ccccc4[nH]3)CC2)nc1; tested at: 1 µM
target | assay | remaining binding [%]
MARK4 (Homo sapiens, UniProt Q96L34) | binding, competition with immobilised ligand | 100
AAK1 (Homo sapiens, UniProt Q2M2I8) | binding | 100
BMPR1B (Homo sapiens, UniProt O00238) | cell-free assay, competition with immobilised ligand | 100
CSNK2A2 (Homo sapiens, UniProt P19784) | cell-free assay, competition with immobilised ligand | 100
TSSK1B (Homo sapiens, UniProt Q9BXA7) | binding, competition with immobilised ligand | 100
WNK1 (Homo sapiens, UniProt Q9H4A3) | binding, competition with immobilised ligand | 100
CASK (Homo sapiens, UniProt O14936) | binding, competition with immobilised ligand | 97
TXK (Homo sapiens, UniProt P42681) | binding, competition with immobilised ligand | 95
TNIK (Homo sapiens, UniProt Q9UKE5) | binding, competition with immobilised ligand | 100
ABL2 (Homo sapiens, UniProt P42684) | binding, competition with immobilised ligand | 100
MARK2 (Homo sapiens, UniProt Q7KZI7) | binding, competition with immobilised ligand | 100
FGFR1 (Homo sapiens, UniProt P11362) | cell-free assay, competition with immobilised ligand | 100
NEK7 (Homo sapiens, UniProt Q8TDX7) | binding, competition with immobilised ligand | 100
GSK3B (Homo sapiens, UniProt P49841) | cell-free assay, competition with immobilised ligand | 93
CSNK1A1L (Homo sapiens, UniProt Q8N752) | cell-free assay, competition with immobilised ligand | 100
MAP3K13 (Homo sapiens, UniProt O43283) | binding, competition with immobilised ligand | 86
EGFR (Homo sapiens, UniProt P00533, del746-750) | cell-free assay, competition with immobilised ligand | 100
MET (Homo sapiens, UniProt P08581, M1250T) | cell-free assay, competition with immobilised ligand | 100
STK3 (Homo sapiens, UniProt Q13188) | binding, competition with immobilised ligand | 100
SRC (Homo sapiens, UniProt P12931) | cell-free assay, competition with immobilised ligand | 93
CDC42BPB (Homo sapiens, UniProt Q9Y5S2) | cell-free assay, competition with immobilised ligand | 100
EPHA7 (Homo sapiens, UniProt Q15375) | cell-free assay, competition with immobilised ligand | 100
CHUK (Homo sapiens, UniProt O15111) | cell-free assay, competition with immobilised ligand | 100
KIT (Homo sapiens, UniProt P10721, L576P) | binding, competition with immobilised ligand | 100
HCK (Homo sapiens, UniProt P08631) | cell-free assay, competition with immobilised ligand | 100

Study 3 — SMILES: Oc1ccc(Nc2nc(-c3ccc(Cl)cc3)cs2)cc1; effect on: enzyme activity; action: inhibitor; tested at: 0.5 µM; baseline: control
target | remaining activity
MAP2K6 (Homo sapiens, UniProt P52564) | 94%
MAP4K2 (Homo sapiens, UniProt Q12851) | 103%
LRRK2 (Homo sapiens, UniProt Q5S007) | 98.7%
Cyclin-dependent kinase 9, with cyclin T1 (CDK9, Homo sapiens, UniProt P50750) | 87.8%
KIT (Homo sapiens, UniProt P10721) | 92%
PRKCD (Homo sapiens, UniProt Q05655) | 86.9%
BTK (Homo sapiens, UniProt Q06187) | 107%
CSNK1A1 (Homo sapiens, UniProt P48729) | 96.4%
EPHA5 (Homo sapiens, UniProt P54756) | 92.6%
MAP3K10 (Homo sapiens, UniProt Q02779) | 100%
CSNK2A1 (Homo sapiens, UniProt P68400) | 101%
IRAK4 (Homo sapiens, UniProt Q9NWZ3) | 111%
AKT3 (Homo sapiens, UniProt Q9Y243) | 105%
WNK2 (Homo sapiens, UniProt Q9Y3S1) | 101%
PLK2 (Homo sapiens, UniProt Q9NYY3) | 105%
PRKG1 (Homo sapiens, UniProt Q13976) | 98.5%
MKNK2 (Homo sapiens, UniProt Q9HBH9) | 84.5%
LYN (Homo sapiens, UniProt P07948) | 100%
MAPK13 (Homo sapiens, UniProt O15264) | 107%
STK38 (Homo sapiens, UniProt Q15208) | 98.2%
NEK4 (Homo sapiens, UniProt P51957) | 104%
CHEK1 (Homo sapiens, UniProt O14757) | 99.4%
MAPK12 (Homo sapiens, UniProt P53778) | 106%

Study 4 — effect on: enzyme activity; action: inhibitor; tested at: 10 µM
Target: Calcium/calmodulin-dependent protein kinase type II subunit alpha (CAMK2A, Homo sapiens, UniProt Q9UQM7)
Chain of UniProt Q9UQM7 (whole entry, looked up): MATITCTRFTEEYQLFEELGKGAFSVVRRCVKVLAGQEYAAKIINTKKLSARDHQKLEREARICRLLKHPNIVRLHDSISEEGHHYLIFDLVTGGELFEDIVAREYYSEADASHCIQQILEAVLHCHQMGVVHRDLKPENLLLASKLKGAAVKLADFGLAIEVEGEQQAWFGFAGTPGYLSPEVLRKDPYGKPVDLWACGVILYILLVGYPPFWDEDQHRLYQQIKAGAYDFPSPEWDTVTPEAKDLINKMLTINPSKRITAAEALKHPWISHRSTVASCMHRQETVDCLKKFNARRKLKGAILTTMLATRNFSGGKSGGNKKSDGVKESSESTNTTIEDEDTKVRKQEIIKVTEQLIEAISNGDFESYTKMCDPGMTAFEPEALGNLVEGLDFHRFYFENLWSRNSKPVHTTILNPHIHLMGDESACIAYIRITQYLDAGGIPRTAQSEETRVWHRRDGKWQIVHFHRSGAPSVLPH
Structure (SMILES) | inhibition [%]
CC(C)=CC[C@@H](OC(=O)C=C(C)C)C1=CC(=O)c2c(O)ccc(O)c2C1=O | 9
COC(=O)c1cc(OC)c2c(c1-c1c(CO)cc(OC)c3c1OCO3)OCO2 | 4
O=C1C=CN(c2c(F)cc(N3C[C@H](CNc4ccon4)OC3=O)c(F)c2F)CC1 | 3
CC1(C)CCC[C@]2(C)[C@H]3CCO[C@]3(C)CC[C@@H]12 | -3
Cn1c(=O)c2c(ncn2CC(=O)O)n(C)c1=O | 9
C[C@H](Nc1ncnc2nc[nH]c12)c1cc2cccc(Cl)c2c(=O)n1-c1ccccc1 | -2
C[C@]12CC[C@@H]3c4ccc(O)cc4CC[C@H]3[C@@H]1CC[C@@H]2O | 16
CCCCCC1C(=O)CCC1CC(=O)OC (centres unmarked) | 29
COc1ccc(-c2cc(=O)c3c(O)cc(O[C@@H]4O[C@H](CO[C@@H]5O[C@@H](C)[C@H](O)[C@@H](O)[C@H]5O)[C@@H](O)[C@H](O)[C@H]4O)cc3o2)cc1O | 15
C/C=C(\C)C(=O)O[C@@H]1c2cc(OC)c(OC)c(OC)c2-c2c(cc3c(c2OC)OCO3)C[C@H](C)[C@@]1(C)O | -8
CC[C@@]1(O)C(=O)OCc2c1cc1n(c2=O)Cc2c-1nc1ccccc1c2CCNC(C)C | -8
CCCCCCCCCCCCOCCOCCOCCOCCOCCOCCOCCOCCOCCO | -9
CC(C)(O)[C@H]1Cc2cc3ccc(=O)oc3cc2O1 | -4
C[C@H]1O[C@@H](O[C@H]2CC[C@@]3(C)[C@@H](CC[C@]4(C)[C@@H]3C=C[C@]35OC[C@@]6(CCC(C)(C)C[C@H]63)[C@@H](O)C[C@]54C)[C@]2(C)CO)[C@H](O)[C@@H](O[C@@H]2O[C@H](CO)[C@@H](O)[C@H](O)[C@H]2O)[C@H]1O | -15
O=C(O[C@H](Cc1ccc(O)c(O)c1)C(=O)O)C1=Cc2cc(O)c(O)cc2[C@H](c2ccc(O)c(O)c2)[C@H]1C(=O)OC(Cc1ccc(O)c(O)c1)C(=O)O (stereo in doubt) | -8
C[C@@H]1C(=O)O[C@H]2C[C@@]34[C@H]5C[C@@H](C(C)(C)C)[C@]36[C@@H](OC(=O)[C@@H]6O)O[C@@]4(C(=O)O5)[C@]21O | -2
C/C=C(/C)C(=O)O[C@H]1C(C)=C[C@]23C(=O)[C@@H](C=C(CO)[C@@H](O)[C@]12O)[C@H]1[C@@H](C[C@H]3C)C1(C)C | 1
CC(C)(C)c1ccc(C(O)CCCN2CCC(C(O)(c3ccccc3)c3ccccc3)CC2)cc1 (centres unmarked) | -6

Excerpt of the above (study 4):
Structure (SMILES) | inhibition [%]
C[C@H](Nc1ncnc2nc[nH]c12)c1cc2cccc(Cl)c2c(=O)n1-c1ccccc1 | -2
CC(C)=CC[C@@H](OC(=O)C=C(C)C)C1=CC(=O)c2c(O)ccc(O)c2C1=O | 9
CCCCCC1C(=O)CCC1CC(=O)OC (centres unmarked) | 29
CCCCCCCCCCCCOCCOCCOCCOCCOCCOCCOCCOCCOCCO | -9
CC[C@@]1(O)C(=O)OCc2c1cc1n(c2=O)Cc2c-1nc1ccccc1c2CCNC(C)C | -8
